Assay results collected from several papers.
Parts stem from different laboratories: compare values within a part only. Substitutions count along the parent as printed.

Set 1 — method: protein-binding microarray; form: double-stranded DNA, one strand shown; sample: in vitro; tested at: 2200 nM top; notes: 60-bp whole probe; with: salmon DNA 0.4 mg/ml; relative to: random background probes; reading: higher = stronger binding; all sequences stand within: GCCTAGCAC … GTCTTGATTCGCTTGACGCTGCTG
Target: Interferon regulatory factor 7, full length, phosphomimetic (IRF7, Homo sapiens, UniProt Q92985, residues 1-503, S471D/S472D/S475D/S476D/S477D/S483D/S484D/S487D)
Residues (chain): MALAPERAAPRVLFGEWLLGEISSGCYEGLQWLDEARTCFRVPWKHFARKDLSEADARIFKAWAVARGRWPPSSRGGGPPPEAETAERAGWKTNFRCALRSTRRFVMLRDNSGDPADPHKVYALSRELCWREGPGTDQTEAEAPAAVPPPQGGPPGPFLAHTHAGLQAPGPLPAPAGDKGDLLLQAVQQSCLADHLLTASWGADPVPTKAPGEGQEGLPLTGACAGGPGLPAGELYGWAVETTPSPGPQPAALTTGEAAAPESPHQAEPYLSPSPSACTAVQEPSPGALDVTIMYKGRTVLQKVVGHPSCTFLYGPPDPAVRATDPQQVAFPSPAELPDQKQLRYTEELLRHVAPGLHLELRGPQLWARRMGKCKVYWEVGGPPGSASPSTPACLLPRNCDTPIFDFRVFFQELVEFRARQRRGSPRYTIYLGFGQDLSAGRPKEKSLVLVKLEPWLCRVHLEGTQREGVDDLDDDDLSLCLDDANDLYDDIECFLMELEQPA
For `GAAGGTCTCCTTATCCTGACGTGCTAG`, “fitted relative affinity” read 0.682 z-score.
`TTAAGACTGGGGACTGGGTTAGTGCTA` — result for “fitted relative affinity”: -0.714 z-score.
Under “fitted relative affinity”, `GACGGACTGGGTTTCGGGGCGTGCTAG` is recorded as 0.263 z-score.
`CGCAGGGCAGGCTTCGGCCGGTGCTAG` — result for “fitted relative affinity”: -1.89 z-score.
Under “fitted relative affinity”, `TTAGGTTCGCTTTTCCTTTAGTGCTAG` is recorded as 5.01 z-score.
`TTAGGTATCGGGTAACGGTTAGTGCTA` — result for “fitted relative affinity”: 0.279 z-score.
`CCTCGTCTCTATCAAAAATAGTGCTAG` — result for “fitted relative affinity”: 1.41 z-score.
`TCCTGGAGTCTATGCTGCTGGTGCTAG` — result for “fitted relative affinity”: -0.171 z-score.
Under “fitted relative affinity”, `GACGGTTTCCTTTTCGTGACGTGCTAG` is recorded as 5.48 z-score.
For `CCGCATATCGGGGTGCGCCCGGTGCTA`, “fitted relative affinity” read 0.34 z-score.
`TTAAGTTTCGGTCTCGGTTAGTGCTAG`: “fitted relative affinity” 8.38 z-score.
Under “fitted relative affinity”, `GACGGTTCCCTTTTTCTGACGTGCTAG` is recorded as 2.29 z-score.
`GTAGGCTTCTATGTAGTTGAGTGCTAG`: “fitted relative affinity” 0.0337 z-score.
For `TGTTTTTGCTTTCTTTATGTGTGCTAG`, “fitted relative affinity” read 4.76 z-score.
Under “fitted relative affinity”, `TTAGATATCAGACCGGATTAGTGCTAG` is recorded as -0.115 z-score.
`CCTAGTTGTACTTTCTATCTGTGCTAG`: “fitted relative affinity” 4.28 z-score.
`GACGGTTTCGCTTCCGGGACGTGCTAG` — result for “fitted relative affinity”: 8.79 z-score.
Under “fitted relative affinity”, `TCACTTCTAGACTTCTCACTGTGCTAG` is recorded as 1.64 z-score.
For `GACGATCTCAGGTTCGAGACGTGCTAG`, “fitted relative affinity” read 0.387 z-score.

Set 2 — method: protein binding microarray; form: double-stranded DNA, one strand shown; sample: in vitro; tested at: not given; relative to: not given; reading: higher = stronger binding
Target: Histone acetyltransferase KAT6A, winged helix 2, GST fusion (KAT6A, Homo sapiens, UniProt Q92794, residues 85-181)
Notes: 8-mer, flanks averaged, mean of 2 arrays, mostly near background
Construct (chain): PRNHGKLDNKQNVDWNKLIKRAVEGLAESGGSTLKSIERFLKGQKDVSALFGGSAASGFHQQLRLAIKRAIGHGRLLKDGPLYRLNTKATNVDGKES
For `CCGACGCA`, the E-score was 0.176.
With `GGTAGAAA` the E-score was 0.0663.
`CGAAAGTC` has an E-score of -0.17.
For `AAATTGGG`, the E-score was -0.00187.
With `CCGCTACC` the E-score was -0.0177.
The E-score of `CCGGGCAC` is reported as 0.111.
`AGCCTACG` gave an E-score of 0.126.
`GGACCCCA` gave an E-score of 0.031.
With `ACTCCAGA` the E-score was 0.0746.
`CGATAAAA` has an E-score of 0.107.
The E-score of `CAGGTCGC` is reported as 0.208.
`GATTCCAC` has an E-score of -0.0483.
With `ATGCATAC` the E-score was -0.242.
For `CAGAAAAC`, the E-score was 0.153.
`ATGGGTTG` gave an E-score of -0.124.
`CAATTGAG` has an E-score of -0.00722.
With `AGACAGTC` the E-score was -0.171.

Set 3 — method: DHFR PCA, deep sequencing; sample: yeast; with: (+)-ABA 0.0091 µM; relative to: wild-type fitted maximum; reading: higher = stronger binding
Target: ABI1, truncated, D143A, DHFR fusion (Arabidopsis thaliana)
Notes: methotrexate growth selection, single substitutions
Starting sequence: PYL1, truncated, DHFR fusion (Arabidopsis thaliana); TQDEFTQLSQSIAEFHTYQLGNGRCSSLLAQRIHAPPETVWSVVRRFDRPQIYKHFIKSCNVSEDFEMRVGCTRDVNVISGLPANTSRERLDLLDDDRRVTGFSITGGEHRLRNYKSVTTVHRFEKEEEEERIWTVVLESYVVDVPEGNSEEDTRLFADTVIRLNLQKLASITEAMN
`M176H` — result for “relative binding score”: -2.9%.
`L82M` — result for “relative binding score”: 39.1%.
`S42I` — result for “relative binding score”: -3.35%.
`E64I`: “relative binding score” 1.77%.
`W41Y` — result for “relative binding score”: -9.75%.
Under “relative binding score”, `R49H` is recorded as 0.677%.
`E89T` — result for “relative binding score”: 2.74%.
`G108C` — result for “relative binding score”: 0.78%.
Under “relative binding score”, `Q167D` is recorded as 1.1%.
Under “relative binding score”, `N177K` is recorded as 21.3%.
`T1Y` — result for “relative binding score”: 22.2%.
Under “relative binding score”, `T39G` is recorded as -0.0121%.
`Q31M` — result for “relative binding score”: 0.33%.
For `I12M`, “relative binding score” read 1.66%.
`I57V` — result for “relative binding score”: 13.3%.
`G148N` — result for “relative binding score”: 15.9%.

Set 4 — method: RNA Bind-n-Seq; form: RNA; sample: in vitro; tested at: 365 nM; relative to: no-protein control; reading: higher = stronger binding
Target: RNA binding protein fox-1 homolog 2, RRM domain, GST-SBP tag (RBFOX2, Homo sapiens, UniProt O43251-10, residues 100-194)
Notes: natural RNA segment, single round, ends assumed
Residues (chain): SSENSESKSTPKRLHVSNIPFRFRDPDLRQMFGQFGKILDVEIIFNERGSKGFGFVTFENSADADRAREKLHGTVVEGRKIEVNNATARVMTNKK
For `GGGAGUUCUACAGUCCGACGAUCAAUCAUGUAUCUCUUAGAGAAGAAAAUUCUAUGCCCUACCACAUCACAAGAUCUCCUCCUCAGUGUCUGUCUGUCUGUCUGUCUGUCUGCCUGGCAUCUGAUGGGUCAGGUGGAAUUCUCGGGUGCCAA`, “RBNS enrichment (R)” read 0.434.
`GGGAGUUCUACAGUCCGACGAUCCAGGGGCCAUAUCUGUAUUAACUGGAUCAAGUAUAAGAAAAGCAAAGACUUCUCAGCUCUGACCUGCCUGCCUCCUUGGAAUUAGACUUGAACUUCUGAUCCUGCCUAUCUGGAAUUCUCGGGUGCCAA`: “RBNS enrichment (R)” 0.73.
Under “RBNS enrichment (R)”, `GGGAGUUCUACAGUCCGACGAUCAAAUAUUUCAGUAAUUUUGGAGUGGAAGUUGGGUUGCUAACAUCAGAGCUCAUGUUCAUGUUUUAGAAGCCCUUUCUUUCUAGGUGUCUCUCAAAAGACUGGCUUAAUUGUGGAAUUCUCGGGUGCCAA` is recorded as 0.377.
For `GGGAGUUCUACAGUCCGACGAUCAAAUGACCAUUAAAUGAGUUUAUAGAUUAUUCUGUAUCAAGAUAAAUCUGAUUCCAGUUAAGCUAUAAACUUGUGGGAUUUUCUUGUAGCCCUAUAGUUCUGUGACUUCAUGGAAUUCUCGGGUGCCAA`, “RBNS enrichment (R)” read 0.232.
`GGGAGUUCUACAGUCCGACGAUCCCCAAAAGUCAACCUCAGUCAAAUUAUCCACGCCAGCCACAGCAUACCUUGUUCCUCUAUGUGCCGCUGUGUGCCAGCCCUCAAACAUCUCCUGUAAAGAGAACAGAGGAUGGAAUUCUCGGGUGCCAA`: “RBNS enrichment (R)” 0.441.
`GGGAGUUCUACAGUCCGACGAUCUGCCUUCCUCACCUCUGGAGCAGCAGCUGGCAGGCACAUCUGCCAUUUGUCCUGGAAUUGUCACGGUGCCUUGGUGUCAGCAGCAGUAACUUGGUGCCAAGGCCAAGAGAUGGAAUUCUCGGGUGCCAA` — result for “RBNS enrichment (R)”: 0.275.
`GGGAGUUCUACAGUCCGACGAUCUUGUAGGUCCCGCAUACAUGUCCACCAGGACAUUAGACAGUCGUAAAGAUGCAGAACGAACAGUUUGUGUGUGGGACUGACCCACCCACACACAGCAGGGCACUUGUUCUUGGAAUUCUCGGGUGCCAA`: “RBNS enrichment (R)” 1.
Under “RBNS enrichment (R)”, `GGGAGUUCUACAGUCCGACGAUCCACUGUCACAGUCUACCACAGCCUCCCUGUCCAAGAAGUGCUGUUGAGAGGCGAGGAGGUAGUGGGUGAGGCUACCUGACUCACUUCAAAUGCAUGUUUUGAGAUGUUUGUGGAAUUCUCGGGUGCCAA` is recorded as 27.

Further values, each from its own experiment
`PhoQ, residues 284 288 289 292 302 303 SNSSNI` has a fold induction of 1.91 (PhoP, residues 12 14 15 18 19 NFCKL (Escherichia coli, UniProt P23836); Sort-seq, refers to: YFP reporter; E. coli; PhoQ-PhoP variant library, with: 10 µM Mg2+; relative to: high Mg2+ state, higher = stronger signaling).

Some of these lines once more (set 2):
`CGATAAAA` has an E-score of 0.107.
`CGAAAGTC` has an E-score of -0.17.
With `GGTAGAAA` the E-score was 0.0663.
With `AGACAGTC` the E-score was -0.171.
`ATGGGTTG` gave an E-score of -0.124.
`CAATTGAG` has an E-score of -0.00722.
For `CCGACGCA`, the E-score was 0.176.
With `ACTCCAGA` the E-score was 0.0746.
